Literature values as cited in several papers.
Each numbered part shows a few of the values that one paper quotes. Numbers after ± are the reported error.
Chain of UniProt P20618 (whole entry, looked up): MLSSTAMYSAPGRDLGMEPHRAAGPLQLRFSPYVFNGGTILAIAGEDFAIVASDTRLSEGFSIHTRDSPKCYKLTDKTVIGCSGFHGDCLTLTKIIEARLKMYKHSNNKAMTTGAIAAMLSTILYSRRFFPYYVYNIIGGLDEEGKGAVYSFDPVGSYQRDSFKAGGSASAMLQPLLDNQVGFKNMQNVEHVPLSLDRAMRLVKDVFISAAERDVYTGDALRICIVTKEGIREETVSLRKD
Chain of UniProt P49720 (whole entry, looked up): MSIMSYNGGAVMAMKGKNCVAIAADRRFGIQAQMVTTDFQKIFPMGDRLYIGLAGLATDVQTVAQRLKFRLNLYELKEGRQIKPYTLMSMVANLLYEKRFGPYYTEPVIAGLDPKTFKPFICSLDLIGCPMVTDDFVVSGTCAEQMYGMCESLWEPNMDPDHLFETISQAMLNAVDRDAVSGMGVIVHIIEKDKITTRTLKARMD
Chain of UniProt P28062 (whole entry, looked up): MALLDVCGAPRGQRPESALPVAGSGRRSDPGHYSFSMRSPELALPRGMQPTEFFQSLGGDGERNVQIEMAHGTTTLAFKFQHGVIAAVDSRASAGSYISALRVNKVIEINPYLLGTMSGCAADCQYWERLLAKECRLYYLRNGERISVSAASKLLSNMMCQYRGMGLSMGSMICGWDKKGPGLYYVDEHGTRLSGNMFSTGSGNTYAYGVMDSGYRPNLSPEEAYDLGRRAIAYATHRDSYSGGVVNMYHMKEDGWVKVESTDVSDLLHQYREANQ

Series 1 — organism: Cryptosporidium parvum; method: high-throughput screen; concentration: concentration not given; quantity: activity
Structure (SMILES) = CC1(C)C[C@@H]1C(=O)N/C(=C\CCCCSC[C@H](N)C(=O)O)C(=O)[O-].[Na+]; value = inactive
Structure (SMILES) = CNC(=C[N+](=O)[O-])NCCSCc1csc(CN(C)C)n1; value = inactive
Structure (SMILES) = CCCCN1CCCC1CNC(=O)c1cc(C#N)c2ccccc2c1OC (centres unmarked); value = inactive
Structure (SMILES) = CC(=O)NCCCCCCNC(C)=O; value = inactive
Structure (SMILES) = COc1ccc(C(=O)NCc2ccc(OCCN(C)C)cc2)cc1OC.Cl; value = inactive
Structure (SMILES) = CCC(=O)NS(=O)(=O)c1ccc(-c2c(-c3ccccc3)noc2C)cc1; value = inactive
Structure (SMILES) = CCC1(c2ccccc2)C(=O)NCNC1=O; value = inactive
Structure (SMILES) = COc1cc2c(cc1OC)C(=O)C(CC1CCN(Cc3ccccc3)CC1)C2 (centres unmarked); value = inactive
Structure (SMILES) = C[C@@H]1O[C@@H](OC[C@H]2O[C@@H](Oc3c(-c4ccc(O)c(O)c4)oc4cc(O)cc(O)c4c3=O)[C@H](O)[C@@H](O)[C@@H]2O)[C@H](O)[C@H](O)[C@H]1O; value = inactive
Structure (SMILES) = C[C@H]1C[C@H]2[C@@H]3CCC4=CC(=O)C=C[C@]4(C)[C@@]3(F)[C@@H](O)C[C@]2(C)[C@@]1(O)C(=O)CO; value = inactive
Structure (SMILES) = COc1cc(/C=C/c2ccc(O)cc2)cc(OC)c1; value = inactive
Structure (SMILES) = N[C@@H](C(=O)N[C@@H]1C(=O)N2C(C(=O)O)=C(Cl)CS[C@H]12)c1ccccc1; value = inactive
Structure (SMILES) = CCCC1O[C@@H]2C[C@H]3[C@@H]4CCC5=CC(=O)C=C[C@]5(C)[C@H]4[C@@H](O)C[C@]3(C)[C@]2(C(=O)CO)O1 (some centres unmarked); value = inactive
Structure (SMILES) = COc1cc(C(=O)NC2CCCNC2)cc(OC)c1OC (centres unmarked); value = inactive
Structure (SMILES) = O=C(O)CCc1nc(-c2ccccc2)c(-c2ccccc2)o1; value = inactive
Structure (SMILES) = c1ccc2c(CC3=NCCN3)cccc2c1; value = inactive
Structure (SMILES) = COc1cc2nc(N3CCN(C(=O)C4CCCO4)CC3)nc(N)c2cc1OC (centres unmarked); value = inactive
Structure (SMILES) = CCN(CC)CC(=O)Nc1c(C)cccc1C; value = inactive
Structure (SMILES) = Clc1ccc(COC(Cn2ccnc2)c2ccc(Cl)cc2Cl)cc1 (centres unmarked); value = inactive
Structure (SMILES) = CCc1nn(CCCN2CCN(c3cccc(Cl)c3)CC2)c(=O)n1CCOc1ccccc1; value = inactive
Structure (SMILES) = CN(C)CCCSc1ccccc1NC(=O)/C=C/c1ccccc1; value = inactive
Structure (SMILES) = OC(Cn1cncn1)(Cn1cncn1)c1ccc(F)cc1F; value = inactive
Structure (SMILES) = Cc1cn([C@H]2C=C[C@@H](CO)O2)c(=O)[nH]c1=O; value = inactive
Structure (SMILES) = CC1(C)O[C@@H]2C[C@H]3[C@@H]4C[C@H](F)C5=CC(=O)C=C[C@]5(C)[C@@]4(F)[C@@H](O)C[C@]3(C)[C@]2(C(=O)CO)O1; value = inactive
Structure (SMILES) = NC[C@H]1CC[C@H](C(=O)Oc2ccc(CCC(=O)O)cc2)CC1; value = inactive

Further values, each from its own experiment
Compound = CN(C)c1cc(CNCC(C)(C)C)c(O)c2c1C[C@H]1C[C@H]3[C@H](N(C)C)C(O)=C(C(N)=O)C(=O)[C@@]3(O)C(O)=C1C2=O; test system = aqueous solution; setting = concentration not given, 24 h, -32; quantity = decrease in concentration; value = ~50%
Compound = CC1(C)CCC(CN2CCN(c3ccc(C(=O)NS(=O)(=O)c4ccc(NCC5CCOCC5)c([N+](=O)[O-])c4)c(Oc4cnc5[nH]ccc5c4)c3)CC2)=C(c2ccc(Cl)cc2)C1; test system = human, AML; setting = dose not given, monotherapy, sample B patients; quantity = response rate (CR + CRi); value = 19%
Compound = CCCn1cc(C)c2c(=O)[nH]c(-c3cc(S(=O)(=O)N4CCN(CC)CC4)ccc3OCC)nc21; test system = human; setting = oral, median; quantity = Tmax; value = 0.5 to 1 h
Compound = CC(=O)N1CCN(c2ccc(OCC3COC(Cn4ccnc4)(c4ccc(Cl)cc4Cl)O3)cc2)CC1 (centres unmarked); test = refers to: lenvatinib; setting = co-administration with compound; quantity = elimination half-life; value = no effect
Compound = NC(=O)N1c2ccccc2C=Cc2ccccc21; quantity = solubility; value = < 200 µg/mL
Compound = O=C1CCc2cc(Nc3cc(OC4CCOCC4)c([N+](=O)[O-])cc3Cl)ccc2N1; tested on = BCL6 (human); test = enzyme activity; quantity = IC50; value = 0.1 µM
Compound = CN1CC[C@@H](c2c(O)cc(O)c3c(=O)cc(-c4ccc(C(F)(F)F)cc4Cl)oc23)[C@@H]1CO; test system = patients with solid tumours; quantity = half-life; value = 28 h
Compound = Cc1c(OCC(F)(F)[18F])ccnc1C[S+]([O-])c1nc2ccccc2[nH]1 (centres unmarked); quantity = plasma half-life; value = ~1.5 h
Compound = CC(=O)Nc1ncc(CN2CCC[C@H](Cc3cc(C)nc(C)c3)C2)s1; tested on = HEXA; quantity = IC50; value = > 10 µM
Compound = CC(C)n1c(Nc2cccnc2)nc2cnc(Nc3ccc(N4CCN(C)CC4)cc3)nc21; test system = healthy human; setting = 100 mg, single dose; quantity = Cmax; value = 46.4 ng/mL
Compound = CC(O)(P(=O)(O)O)P(=O)(O)OP(=O)(O)OC[C@H]1O[C@@H](n2ccc(N)nc2=O)[C@@H](O)[C@@H]1O (some centres unmarked); test system = human serum; setting = pH 7.4, 37 °C; scale = relative to: serum over buffer; quantity = release rate ratio; value = 2 fold
Compound = CNC[C@H](O)[C@@H](O)[C@H](O)[C@H](O)CO.O=C([O-])CN1CCN(CC(=O)[O-])CCN(CC(=O)O)CCN(CC(=O)[O-])CC1.[Gd+3]; setting = 0.1 mmol/kg; quantity = half-life; value = 2.04 ± 0.72 h
Compound = COCC(=O)N1CCC[C@H](C(=O)NCc2nc(-c3ccc(C#N)cc3)cs2)C1; tested on = PSMB1/PSMB8/PSMB3 (Homo sapiens, UniProt P20618+P28062+P49720); test = enzyme activity, inhibitor; quantity = IC50; value = > 30 µM
Compound = C=C(C)[C@@H]1CC[C@]2(CO)CC[C@]3(C)[C@H](CC[C@@H]4[C@@]5(C)CC[C@H](O)[C@@](C)(COC(=O)/C=C\c6ccc(O)cc6)[C@@H]5CC[C@]43C)[C@@H]12; tested on = Plasmodium falciparum; test system = Dd2; setting = concentration not given; quantity = antiplasmodial activity; value = active
Compound = Cn1c(=O)c2c(ncn2CC(=O)Nc2ccc(-c3ccccc3)nn2)n(C)c1=O; test system = human, advanced cancer; setting = dose not given, phase I trial; scale = relative to: subjects; quantity = incidence of nausea and vomiting; value = 25 to 30%
Compound = Cn1c(=O)c2[nH]cnc2n(C)c1=O; tested on = alkaline phosphatase; test = inhibitor; quantity = Ki; value = 82 µM
Compound = Cn1nc(C(=O)NCc2ccc(C(=O)O)cc2)cc1-c1ccc2[nH]ccc2c1; tested on = MMP13; test = biochemical activity; quantity = IC50; value = 26 µM
Compound = COc1cc2c(Nc3ccc(Cl)c(Cl)c3F)ncnc2cc1OC[C@@H]1C[C@@H]2CN(C)C[C@@H]2C1; test system = treatment-naive patients, advanced EGFR-mutant NSCLC; setting = dose not given, phase II trial; quantity = response rate; value = 57%
Compound = CC(=O)O[C@@H]1CC[C@@]2(C)[C@@H](CC[C@]3(C)[C@@H]2C(=O)C=C2[C@@H]4[C@@H](C)[C@H](C)CC[C@]4(C)CC[C@]23C)[C@@]1(C)C(=O)O; setting = concentration not given; quantity = logP; value = 3.3
Compound = CNC[C@H](O)[C@@H](O)[C@H](O)[C@H](O)CO.CNC[C@H](O)[C@@H](O)[C@H](O)[C@H](O)CO.O=C([O-])CN(CCN(CC(=O)[O-])CC(=O)O)CCN(CC(=O)[O-])CC(=O)O.[Gd+3]; setting = 0.1 mmol/kg; quantity = half-life; value = 1.51 ± 0.28 h
Compound = Cc1cc(-c2nccc3c2ccn3CC(=O)Nc2ccc(-c3cnccn3)cn2)ccn1; test system = dog; setting = 10 mg/kg/day, 1 month, repeat dosing; quantity = Cmax, total; value = 3.2 µM
Compound = COCC(=O)N1CCC[C@H](C(=O)NCc2nc(-c3ccccc3)cs2)C1; tested on = Plasmodium falciparum; test = parasite growth; test system = 3D7; setting = asexual blood stage; quantity = EC50; value = 0.089 µM
Compound = CC(C)C[C@H](NC(=O)[C@H](CCc1ccccc1)NC(=O)CN1CCOCC1)C(=O)N[C@@H](Cc1ccccc1)C(=O)N[C@@H](CC(C)C)C(=O)[C@@]1(C)CO1; quantity = logP; value = 4.13
Compound = Cc1ccc2[nH]c(CNCCCc3ccncc3)cc(=O)c2c1; tested on = DRD4 human; quantity = Ki; value = 7.5 µM
Compound = CC1(C)CCC(CN2CCN(c3ccc(C(=O)NS(=O)(=O)c4ccc(NCC5CCOCC5)c([N+](=O)[O-])c4)c(Oc4cnc5[nH]ccc5c4)c3)CC2)=C(c2ccc(Cl)cc2)C1; test system = human; setting = oral, fed, median; quantity = Tmax; value = 6 h

Repeated from above (series 1):
Structure (SMILES) = CC1(C)C[C@@H]1C(=O)N/C(=C\CCCCSC[C@H](N)C(=O)O)C(=O)[O-].[Na+]; value = inactive
Structure (SMILES) = CNC(=C[N+](=O)[O-])NCCSCc1csc(CN(C)C)n1; value = inactive
Structure (SMILES) = CCCCN1CCCC1CNC(=O)c1cc(C#N)c2ccccc2c1OC (centres unmarked); value = inactive
Structure (SMILES) = CC(=O)NCCCCCCNC(C)=O; value = inactive
Structure (SMILES) = COc1ccc(C(=O)NCc2ccc(OCCN(C)C)cc2)cc1OC.Cl; value = inactive
Structure (SMILES) = CCC(=O)NS(=O)(=O)c1ccc(-c2c(-c3ccccc3)noc2C)cc1; value = inactive
Structure (SMILES) = CCC1(c2ccccc2)C(=O)NCNC1=O; value = inactive
